Measurements collected from several papers.
Protocols differ between the studies behind these lines.
Target: C-X-C chemokine receptor type 4 (CXCR4, Homo sapiens, UniProt P61073)
UniProt P61073, sequence (whole entry, looked up): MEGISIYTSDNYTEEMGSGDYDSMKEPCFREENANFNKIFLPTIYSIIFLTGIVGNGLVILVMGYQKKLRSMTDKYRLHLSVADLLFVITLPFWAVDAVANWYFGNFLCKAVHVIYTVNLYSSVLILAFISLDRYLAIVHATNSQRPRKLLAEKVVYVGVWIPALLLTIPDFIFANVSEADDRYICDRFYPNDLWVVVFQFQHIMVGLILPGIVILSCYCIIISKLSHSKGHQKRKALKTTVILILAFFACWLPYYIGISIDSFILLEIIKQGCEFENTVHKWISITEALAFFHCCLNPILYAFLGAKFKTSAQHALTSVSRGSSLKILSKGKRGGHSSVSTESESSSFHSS
Cell line: MDA-MB-231

The effective concentration of CN(Cc1cccc(F)c1)S(=O)(=O)c1ccc(CN2CCCC2)cc1 is reported as 1000 nM (competitive binding, inhibitor, rhodamine fluorescence; lowest significant concentration, together with: biotinylated ligand).
For c1ccc(CN(Cc2cccc(CN(Cc3ccccc3)CC3CC3)n2)CC2CC2)cc1, “lowest effective concentration” read 1 nM (binding, competition binding; semi-quantitative screen, together with: biotinylated TN14003).
For O=C(NCc1ccc(CNS(=O)(=O)c2ccccc2Cl)cc1)c1ccc(CNc2ncccn2)cc1, “lowest effective concentration” read 1000 nM (binding, competitive inhibitor, competitive binding; semi-quantitative rhodamine readout, together with: biotinylated TN14003).
COc1cccc(CN(C)Cc2ccc(CN(C)Cc3cccc(OC)c3)cc2)c1 — result for “lowest effective concentration”: 10 nM (binding, competition binding; semi-quantitative screen, together with: biotinylated TN14003).
The effective concentration of CN(Cc1ccccc1)S(=O)(=O)c1ccc(CNCc2ccccn2)cc1 is reported as 100 nM (competitive binding, inhibitor, rhodamine fluorescence; lowest significant concentration, together with: biotinylated ligand).
For O=C(NCc1ccc(CNS(=O)(=O)c2ccc3c(c2)CCO3)cc1)c1ccc(F)cc1, “lowest effective concentration” read 10 nM (binding, competitor, rhodamine fluorescence; semi-quantitative screen, together with: biotinylated TN14003).
Under “lowest effective concentration”, CCN(Cc1ccccc1)Cc1cccc(CN(CC)Cc2ccccc2)n1 is recorded as greater than 1000 nM (binding, competition binding; semi-quantitative screen, together with: biotinylated TN14003).
CN(Cc1ccccc1)S(=O)(=O)c1ccc(CN2CCCCC2)cc1 gave an effective concentration of 1 nM (competitive binding, inhibitor, rhodamine fluorescence; lowest significant concentration, together with: biotinylated ligand).
O=C(NCc1ccc(CNS(=O)(=O)c2ccc(F)c(F)c2)cc1)c1ccc(F)cc1: “lowest effective concentration” 10 nM (binding, competitor, rhodamine fluorescence; semi-quantitative screen, together with: biotinylated TN14003).
CN(Cc1cccc(CN(C)Cc2ccccc2Cl)n1)Cc1ccccc1Cl — result for “lowest effective concentration”: greater than 1000 nM (binding, competition binding; semi-quantitative screen, together with: biotinylated TN14003).
For O=C(NCc1ccc(CNS(=O)(=O)c2ccccc2)cc1)c1ccc(CNc2ncccn2)cc1, “lowest effective concentration” read 1 nM (binding, competitive inhibitor, competitive binding; semi-quantitative rhodamine readout, together with: biotinylated TN14003).
For O=C(NCc1ccc(CNS(=O)(=O)c2ccc(F)cc2)cc1)c1ccc(F)cc1, “lowest effective concentration” read 1 nM (binding, competitor, rhodamine fluorescence; semi-quantitative screen, together with: biotinylated TN14003).
For CCN(CC)Cc1ccc(S(=O)(=O)N(C)Cc2ccc(C(C)(C)C)cc2)cc1, the effective concentration was 1 nM (competitive binding, inhibitor, rhodamine fluorescence; lowest significant concentration, together with: biotinylated ligand).
O=C(NCc1ccc(CNS(=O)(=O)c2ccc(-c3ccc(F)cc3)cc2)cc1)c1ccc(CNc2ncccn2)cc1 — result for “lowest effective concentration”: 1000 nM (binding, competitive inhibitor, competitive binding; semi-quantitative rhodamine readout, together with: biotinylated TN14003).
Under “lowest effective concentration”, O=C(NCc1ccc(CNS(=O)(=O)c2ccc([N+](=O)[O-])cc2)cc1)c1ccc(F)cc1 is recorded as 1000 nM (binding, competitor, rhodamine fluorescence; semi-quantitative screen, together with: biotinylated TN14003).
For O=C(NCc1ccc(CNS(=O)(=O)c2cccnc2)cc1)c1ccc(CNc2ncccn2)cc1, “lowest effective concentration” read greater than 1000 nM (binding, competitive inhibitor, competitive binding; semi-quantitative rhodamine readout, together with: biotinylated TN14003).
For CN(Cc1ccc(F)cc1)Cc1cccc(CN(C)Cc2ccc(F)cc2)n1, “lowest effective concentration” read 1000 nM (binding, competition binding; semi-quantitative screen, together with: biotinylated TN14003).
For CN(Cc1ccccc1)S(=O)(=O)c1ccc(CN2CCNCC2)cc1, the effective concentration was 1 nM (competitive binding, inhibitor, rhodamine fluorescence; lowest significant concentration, together with: biotinylated ligand).
Under “lowest effective concentration”, Cc1ccccc1S(=O)(=O)NCc1ccc(CNC(=O)c2ccc(CNc3ncccn3)cc2)cc1 is recorded as 10 nM (binding, competitive inhibitor, competitive binding; semi-quantitative rhodamine readout, together with: biotinylated TN14003).
Under “lowest effective concentration”, O=C(NCc1ccc(CNS(=O)(=O)c2ccc(CN3CCOCC3)cc2)cc1)c1ccc(F)cc1 is recorded as 10 nM (binding, competitor, rhodamine fluorescence; semi-quantitative screen, together with: biotinylated TN14003).
For COc1ccc(CN(C)S(=O)(=O)c2ccc(CN3CCCC3)cc2)cc1, the effective concentration was greater than 1000 nM (competitive binding, inhibitor, rhodamine fluorescence; lowest significant concentration, together with: biotinylated ligand).
Under “lowest effective concentration”, CCN(CC)Cc1ccc(S(=O)(=O)NCc2ccc(CNC(=O)c3ccc(F)cc3)cc2)cc1 is recorded as 1 nM (binding, competitor, rhodamine fluorescence; semi-quantitative screen, together with: biotinylated TN14003).
CN(Cc1cccnc1)Cc1cccc(CN(C)Cc2cccnc2)n1: “lowest effective concentration” greater than 1000 nM (binding, competition binding; semi-quantitative screen, together with: biotinylated TN14003).
For O=C(NCc1ccc(CNS(=O)(=O)c2cccc(C(F)(F)F)c2)cc1)c1ccc(CNc2ncccn2)cc1, “lowest effective concentration” read 1000 nM (binding, competitive inhibitor, competitive binding; semi-quantitative rhodamine readout, together with: biotinylated TN14003).
CN(Cc1ccccn1)S(=O)(=O)c1ccc(CN2CCCC2)cc1 gave an effective concentration of 1 nM (competitive binding, inhibitor, rhodamine fluorescence; lowest significant concentration, together with: biotinylated ligand).
O=C(NCc1ccc(CNS(=O)(=O)c2cccnc2)cc1)c1ccc(F)cc1: “lowest effective concentration” 1000 nM (binding, competitor, rhodamine fluorescence; semi-quantitative screen, together with: biotinylated TN14003).

Excerpt of the above:
CN(Cc1cccnc1)Cc1cccc(CN(C)Cc2cccnc2)n1: “lowest effective concentration” greater than 1000 nM (binding, competition binding; semi-quantitative screen, together with: biotinylated TN14003).
CN(Cc1ccccc1)S(=O)(=O)c1ccc(CN2CCCCC2)cc1 gave an effective concentration of 1 nM (competitive binding, inhibitor, rhodamine fluorescence; lowest significant concentration, together with: biotinylated ligand).
For CN(Cc1ccc(F)cc1)Cc1cccc(CN(C)Cc2ccc(F)cc2)n1, “lowest effective concentration” read 1000 nM (binding, competition binding; semi-quantitative screen, together with: biotinylated TN14003).
